Measurements pooled from the literature.
Numbered parts are unrelated; each lists some results of a single study. Positions count from the first letter of the parent shown.

Series 1 — target: CCNB2, cyclin fold, Cln2 fusion (human); technique: yeast growth competition, sequencing; matrix: yeast; notes: weak parent motif; reference: not given; reading: higher = stronger binding
Starting sequence: CDC6 docking peptide (human); TLKGRRLVFDNQL; partner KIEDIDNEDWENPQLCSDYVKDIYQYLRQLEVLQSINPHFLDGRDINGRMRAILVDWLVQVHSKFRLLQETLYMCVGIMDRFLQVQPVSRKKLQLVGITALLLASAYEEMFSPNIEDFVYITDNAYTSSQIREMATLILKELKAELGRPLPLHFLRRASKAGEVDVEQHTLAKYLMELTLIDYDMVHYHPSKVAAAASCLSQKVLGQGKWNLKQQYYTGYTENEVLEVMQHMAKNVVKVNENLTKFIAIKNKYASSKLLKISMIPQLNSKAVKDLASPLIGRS
`TYKGRRLVFDNQL [L2Y]`: “normalised enrichment score” 0.22.
For `TLKGRRLVFDAQL [N11A]`, “normalised enrichment score” read 0.185.
`TLKGRRLVIDNQL [F9I]` — result for “normalised enrichment score”: 0.691.
Under “normalised enrichment score”, `TLKGRRLVFMNQL [D10M]` is recorded as 0.681.
For `TLKGTRLVFDNQL [R5T]`, “normalised enrichment score” read 0.547.
Under “normalised enrichment score”, `TLKGRREVFDNQL [L7E]` is recorded as 0.298.
For `TLKGRRDVFDNQL [L7D]`, “normalised enrichment score” read 0.257.
`TLKGRRLVFNNQL [D10N]`: “normalised enrichment score” 0.848.

Series 2 — technique: RNA Bind-n-Seq; molecule type: RNA; matrix: in vitro; concentration: 365 nM; reference: no-protein control; reading: higher = stronger binding
Target: RNA binding protein fox-1 homolog 2, RRM domain, GST-SBP tag (RBFOX2, Homo sapiens, UniProt O43251-10, residues 100-194)
Notes: natural RNA segment, single round, ends assumed
Shared flanks, not repeated: GGGAGUUCUACAGUCCGACGAUC … UGGAAUUCUCGGGUGCCAA
Construct (chain): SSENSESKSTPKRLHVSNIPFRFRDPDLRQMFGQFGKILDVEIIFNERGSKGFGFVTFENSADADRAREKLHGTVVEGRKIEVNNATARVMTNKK
`AGUGUCCUUACACUACACUAUCCUGAGCUGGUUGGGGUGGGUAGAAGAAGGCAAGGACUGCCUGAGAGGCUGCGUUGACCCUACUGAUGUGGGUCUUGGGAUGGGCUGGA` — result for “RBNS enrichment (R)”: 0.613.
Under “RBNS enrichment (R)”, `GUGGUGAUUCCUGAGACUGGCAACAUGCCACAGAGUUGAAAUAAUACUCAGAACUCAGGAGCCUUGCCCAGCCGCUCAGUCACCUGCCUGCUGUGCUUCCGGGCAGUGCC` is recorded as 0.301.
`GGGAGUUGCAGUAGCAUGAUCAGGACUCACUGCAGCCUCUAUCUCCCAGGCUCAAGUAAUCCUCCCAUCUUAGUGCCCCAAGUAGCUGGGACUACAGGGGUGCACUACCA`: “RBNS enrichment (R)” 1.35.
For `GUUUUACAAAAUAAUGAAGCAAUUAGCUAUGUGAUUGAGAGUUAUUGUUUGGGGAUGUGUGUUGUGGUUUUGCUUUUUUUUUUUAGACUGUAUUAAUAAACAUACAACAC`, “RBNS enrichment (R)” read 1.51.
`GGAGCACUGUGGGGACGGACUCCGCCUGCUGUUCCCGCGCUGAGCUACAGGACUCCCGAGUGUGAGCCGCGGUUCCUCUGUUGCAGCGCAGCCGUGUGUGCUGUGGAGCC` — result for “RBNS enrichment (R)”: 0.219.
For `CCAUGGAGAUUGUUUUACAAACUUUUGAUGUGGUCAAGUUCAGUUUUAGAAAAGGGAGUCUGUUCCAGAUCAGUGCCAGAACUGUGCCCAGGCCCAAAGGAGACAACUAA`, “RBNS enrichment (R)” read 0.277.
`GAAAUGAUGGCAAAACGUCAAACUCUUAUUUCAGAGCUUCAUGAAUUUAGUUAGACUAAACAUAAUUCUUUAAGUUCAACCUAAAGGGCUGAGAUCAAUAAAUUUAACAC`: “RBNS enrichment (R)” 0.321.
Under “RBNS enrichment (R)”, `UAUACCCCCAAAAUACCGUCUUCAGUAGCGACUGAAUCUGCCACUGUCAAAAUACGUUACUUGCAUUUAUUCCAAAUAAUCUCGUUUACUCUUAACUGUUUAUGCAAAUU` is recorded as 0.783.

Series 3 — technique: protein binding microarray; molecule type: double-stranded DNA, one strand shown; matrix: in vitro; concentration: not given; reference: not given; reading: higher = stronger binding
Target: Histone acetyltransferase KAT6A, winged helix 1, GST fusion (KAT6A, Homo sapiens, UniProt Q92794, residues 1-85)
Notes: 8-mer, flanks averaged, mean of 2 arrays, mostly near background
Target sequence (chain): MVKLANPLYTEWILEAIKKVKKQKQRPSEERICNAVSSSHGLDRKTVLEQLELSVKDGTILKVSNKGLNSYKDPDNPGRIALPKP
The E-score of `ACCACCAT` is reported as -0.0841.
`ATACGGGA` gave an E-score of 0.306.
The E-score of `GGACGGGA` is reported as 0.335.
The E-score of `CCATGTGA` is reported as -0.107.
`CATCTCGC` gave an E-score of 0.0913.
With `AGACCACA` the E-score was -0.113.
With `AACCTGCT` the E-score was -0.166.
`CCAGTGGG` has an E-score of -0.173.
`CCAAACGC` has an E-score of -0.0487.
With `ATAAATCA` the E-score was -0.243.
With `ATTATGCG` the E-score was 0.0843.

Single results of other studies
`PhoQ, residues 284 288 289 292 302 303 TNSAEL` gave a fold induction of 9.01 (PhoP, residues 12 14 15 18 19 GQAIL (Escherichia coli, UniProt P23836); Sort-seq, measured: YFP reporter; E. coli; PhoQ-PhoP variant library, with: 10 µM Mg2+; reference: high Mg2+ state, higher = stronger signaling).

Excerpt of the above (series 3):
The E-score of `GGACGGGA` is reported as 0.335.
`CCAGTGGG` has an E-score of -0.173.
With `AGACCACA` the E-score was -0.113.
The E-score of `ACCACCAT` is reported as -0.0841.
